Values quoted from earlier work as cited in several papers.
Each line is one published result; not all experiments were run side by side. ± gives the spread as reported. Values after ≈ are worked out from the molar mass of the structure shown.

`c1ccc2c[n+](CCCCCCCC[n+]3ccc4ccccc4c3)ccc2c1` has a protective ratio of 0.87 (mouse; relative to: LD50 pretreated over non-pretreated).
With `CCOc1c(SSc2cnn(-c3ccccc3)c(=O)c2OCC)cnn(-c2ccccc2)c1=O` the IC50 was 1.2 ± 0.4 µM (Sortase A (Bacillus anthracis str. H9401, UniProt P0DPQ5); inhibitor).
`O=C(/C=C/c1ccccc1)N[C@H](COC(=O)c1ccccc1)C(=O)NC1CCCCC1` has an IC50 of 30 µM (Replicase polyprotein 1a, 3C-like proteinase (Severe acute respiratory syndrome-related coronavirus, UniProt P0C6U8, R3428I); enzyme activity, inhibitor).
`COc1cc(Cc2cnc(N)nc2N)cc(/C=C/C(=O)N2N=Cc3ccccc3C2c2ccccc2)c1OC` (racemic) gave an MIC of 0.4 to 1.5 mg/L (≈ 0.768 to 2.88 µM) (Bacillus anthracis).
`CC(C)C[C@@H]1NC(=O)[C@H](C(C)C)NC(=O)[C@H](C)NC(=O)[C@@H]2CSSC[C@H](NC(=O)CN)C(=O)N[C@@H](CSSC[C@@H](C(N)=O)NC(=O)[C@H](Cc3ccc(O)cc3)NC1=O)C(=O)N[C@@H](CO)C(=O)N[C@@H]([C@@H](C)O)C(=O)N1CCC[C@H]1C(=O)N1CCC[C@H]1C(=O)N2` gave an IC50 of 0.00026 µM (α6/α3β2β3 nicotinic acetylcholine receptor; antagonist).
`CCCCC/C=C\C/C=C\C/C=C\C/C=C\CCCCP(=O)(F)OC` (stereo not shown) has an IC50 of 0.0025 µM (FAAH).
The CC50 of `Cc1cc(C(=O)N[C@@H](Cc2cccc3ccccc23)C(=O)N[C@@H](CC(C)C)C(=O)N[C@H](C=O)C[C@@H]2CCCNC2=O)no1` is reported as over 100 µM (Calu-3; cytotoxicity).
The protective ratio of `CC(C)(C)c1cc[n+](CCCCCCCC[n+]2ccc(C(C)(C)C)cc2)cc1` is reported as 0.98 (mouse; relative to: LD50 pretreated over non-pretreated).
The EC50 of `CNCc1ccc(C)c(C(=O)N[C@H](C)c2cccc3ccccc23)c1` is reported as 2 µM (SARS coronavirus; antiviral activity).
`CCC(CC)C1c2ccccc2C=NN1C(=O)/C=C/c1cc(Cc2cnc(N)nc2N)cc(OC)c1OC` (racemic) has an MIC of 4 to 8 mg/L (≈ 7.77 to 15.5 µM) (Bacillus anthracis).
The MIC of `COc1cc(Cc2cnc(N)nc2N)cc(/C=C/C(=O)N2N=Cc3ccccc3C2C=C(C)C)c1OC` (racemic) is reported as 0.5 mg/L (≈ 1 µM) (Bacillus anthracis; Sterne).
`CC[C@H](C)[C@H](NC(=O)[C@H](CCCNC(=N)N)NC(=O)[C@H](CCCCN)NC(=O)[C@H](CC(C)C)NC(=O)[C@H](CS)NC(=O)[C@H](CCC(=O)O)NC(=O)[C@H](CO)NC(=O)[C@H](CC(C)C)NC(=O)[C@H](CCCCN)NC(=O)[C@H](CCCCN)NC(=O)[C@@H](NC(=O)[C@H](CO)NC(=O)[C@H](C)NC(=O)[C@H](CC(=O)O)NC(=O)[C@H](CCC(N)=O)NC(=O)[C@@H]1CCCN1C(=O)[C@@H](N)C(C)C)[C@@H](C)O)C(=O)NCC(=O)N[C@@H](CC(=O)O)C(=O)N[C@@H](CCC(=O)O)C(=O)N[C@@H](CC(C)C)C(=O)N[C@@H](CC(=O)O)C(=O)N[C@@H](CO)C(=O)N[C@@H](CC(N)=O)C(=O)N[C@@H](CCSC)C(=O)N[C@@H](CCC(=O)O)C(=O)N[C@@H](CC(C)C)C(=O)N[C@@H](CCC(N)=O)C(=O)O` has a Kd of 0.96 µM (variola virus F1L; binding; together with: BH3 peptides).
`O=C(Nc1ccc(Cl)c(-c2nc3ncccc3o2)c1)c1cccc(OCc2ccccc2)c1` has an IC50 of 6 µM (Replicase polyprotein 1ab, helicase nsp13 (rep, Severe acute respiratory syndrome-related coronavirus, UniProt P0C6X7); DNA duplex unwinding, inhibitor).

Excerpt of the above:
`O=C(/C=C/c1ccccc1)N[C@H](COC(=O)c1ccccc1)C(=O)NC1CCCCC1` has an IC50 of 30 µM (Replicase polyprotein 1a, 3C-like proteinase (Severe acute respiratory syndrome-related coronavirus, UniProt P0C6U8, R3428I); enzyme activity, inhibitor).
